Assay results from different studies.
A part holds a random share of what one study measured. Values joined by “and” are separate records of one study, mostly repeats; a detail may differ.

Set 1
Structure (SMILES): COc1ccc2c(c1)/C(=C/c1cnc[nH]1)C(=O)N2
Read-out: enzyme activity
Action: inhibitor
Concentration: 0.5 µM
Baseline: control
Quantity: remaining activity
target = SRPK2 (Homo sapiens, UniProt P78362); value = 101%
target = PTK2 (Homo sapiens, UniProt Q05397); value = 87.9%
target = PTK6 (Homo sapiens, UniProt Q13882); value = 87.7%
target = PIM3 (Homo sapiens, UniProt Q86V86); value = 99%
target = BRAF (Homo sapiens, UniProt P15056); value = 98.4%
target = CHUK (Homo sapiens, UniProt O15111); value = 110%
target = HASPIN (Homo sapiens, UniProt Q8TF76); value = 72.2%
target = MAP3K7 (Homo sapiens, UniProt O43318); value = 63.7%
target = ZAP70 (Homo sapiens, UniProt P43403); value = 92.8%
target = Cyclin-dependent kinase 6, with cyclin D1 (CDK6, Homo sapiens, UniProt Q00534); value = 13.3%
target = SYK (Homo sapiens, UniProt P43405); value = 93.9%
target = STK4 (Homo sapiens, UniProt Q13043); value = 5.67%
target = NTRK1 (Homo sapiens, UniProt P04629); value = 61.4%
target = Aurora kinase B (AURKB, Homo sapiens, UniProt Q96GD4); value = 40%
target = STK3 (Homo sapiens, UniProt Q13188); value = 12.2%
target = TTK (Homo sapiens, UniProt P33981); value = 59.9%
target = PDGFRA (Homo sapiens, UniProt P16234); value = 94.9%
target = TSSK1B (Homo sapiens, UniProt Q9BXA7); value = 101%
target = CAMK2A (Homo sapiens, UniProt Q9UQM7); value = 86.6%

Set 2
SMILES: CC(C)(C)OC(=O)N[C@H]1CCCCC/C=C\[C@@H]2C[C@@]2(C(=O)NS(=O)(=O)C2CC2)NC(=O)[C@@H]2C[C@@H](OC(=O)N3Cc4cccc(F)c4C3)CN2C1=O
Quantity: inhibition
Genome polyprotein R1181Q NS3 protease: Genome polyprotein, NS3 protease (Hepatitis C virus genotype 1b, UniProt Q9WMX2, R1181Q)
Genome polyprotein R1181K NS3 protease: Genome polyprotein, NS3 protease (Hepatitis C virus genotype 1b, UniProt Q9WMX2, R1181K)
Genome polyprotein: Genome polyprotein (Hepatitis C virus genotype 1b, UniProt Q9WMX2)
target = Genome polyprotein R1181Q NS3 protease; conditions = 1 µM; value = 99%
target = Genome polyprotein R1181K NS3 protease; conditions = 0.01 µM; value = 18%
target = Genome polyprotein; test = protease activity, inhibitor; conditions = 0.0001 µM; value = 26%
target = Genome polyprotein R1181K NS3 protease; conditions = 0.1 µM; value = 57%
target = Genome polyprotein; test = protease activity, inhibitor; conditions = 0.01 µM; value = 93%
target = Genome polyprotein R1181Q NS3 protease; conditions = 0.1 µM; value = 51%

Set 3
Target: vesicular stomatitis virus glycoprotein
Read-out: viral entry
Technique: VSVΔG-G pseudovirus
Concentration: 10 µM
Quantity: inhibition
SMILES = Cc1nc2cc(-c3cccc4ccnn34)ccc2s1; value = 0.7%
SMILES = N#CC(C#N)=NNc1ccc2c(c1)OCCO2; value = -21%
SMILES = COc1ccccc1C(=O)c1sc(Nc2ccc(C(C)C)cc2)nc1N; value = 15%
SMILES = Cc1nc(Sc2nnc(-c3ccccc3)n2C)c2sc(=S)n(-c3ccccc3)c2n1; value = 9%
SMILES = N#Cc1c(Cl)c(Cl)c(Cl)c(Cl)c1C#N; value = 26%
SMILES = Oc1ccc(CN2CCN(Cc3ccc(Br)s3)CC2)c2cccnc12; value = 10%
SMILES = O=C1CN(c2ncnc3sc4c(c23)CCCC4)CCN1; value = -29%
SMILES = Cc1cccc(-c2[nH]c(C(C)(C)C)nc2-c2ccc3c(c2)OCO3)n1; value = -3.6%

Set 4
Structure (SMILES): Cc1ncsc1-c1ccc([C@H](C)NC(=O)[C@@H]2C[C@@H](O)CN2C(=O)[C@@H](NC(=O)CNC(=O)c2ccc(F)c(-c3ccc(N4C[C@@H](C)N(C)[C@@H](C)C4)c(NC(=O)c4c[nH]c(=O)cc4C(F)(F)F)c3)c2)C(C)(C)C)cc1
Target: WDR5/DCAF1 (Homo sapiens, UniProt P61964+Q9Y4B6)
Action: degrader
Technique: HiBiT luminescence
Time: 24 h
Quantity: remaining protein level
conditions = 388 nM; value = 20.5% and 22.5% and 22.9% and 20.9%
conditions = 1.4 nM; value = 72.4% and 73.7% and 82.1% and 75.3%
conditions = 22.7 nM; value = 35.8% and 35.7% and 33% and 33.1%
conditions = 1000 nM; value = 20.6% and 19.1% and 23% and 22.6%
conditions = 0.6 nM; value = 90.4% and 91% and 100% and 89.8%

A few entries again (set 1):
target = CAMK2A (Homo sapiens, UniProt Q9UQM7); value = 86.6%
target = TSSK1B (Homo sapiens, UniProt Q9BXA7); value = 101%
target = STK3 (Homo sapiens, UniProt Q13188); value = 12.2%
target = NTRK1 (Homo sapiens, UniProt P04629); value = 61.4%
target = MAP3K7 (Homo sapiens, UniProt O43318); value = 63.7%
